Published values gathered from unrelated publications.
Each line is one published result; not all experiments were run side by side.

CC(C)[C@@H]1NC(=O)[C@H](C)OC(=O)[C@@H](C(C)C)NC(=O)[C@@H](C(C)C)OC(=O)[C@H](C(C)C)NC(=O)[C@H](C)OC(=O)[C@@H](C(C)C)NC(=O)[C@@H](C(C)C)OC(=O)[C@H](C(C)C)NC(=O)[C@H](C)OC(=O)[C@@H](C(C)C)NC(=O)[C@H](C)OC1=O gave a selectivity ratio of 35 (C6; cell growth, SRB; relative to: IC50 in HA over IC50 in C6).
For CCCCN[C@H]1C=C[C@]2(O[C@H]([C@@H](CC)C(=O)[C@@H](C)[C@@H](O)[C@H](C)[C@@H]3O[C@@H]([C@@H](CC)C(=O)O)CC[C@@H]3C)[C@@H](C)C[C@H]2C)O[C@@]12CC[C@@](C)([C@H]1CC[C@](O)(CC)[C@H](C)O1)O2, the selectivity ratio was 15.2 (HMLER CD24low/CD44high; cell viability, CellTiter-Blue; 72 h; relative to: IC50 HMLER CD24high/CD44low over CD24low/CD44high).
For Cc1ccc(C(C)C)cc1.[Au][S]C1=NCCS1.[Cl][Ru][Cl].c1ccc(P(CP(c2ccccc2)c2ccccc2)c2ccccc2)cc1, the selectivity ratio was 7.5 (L929 and HCT-116; trypan blue exclusion; relative to: IC50 L929 over IC50 HCT-116).
With CCCCCN(CCCCC)[C@H]1C=C[C@]2(O[C@H]([C@@H](CC)C(=O)[C@@H](C)[C@@H](O)[C@H](C)[C@@H]3O[C@@H]([C@@H](CC)C(=O)O)CC[C@@H]3C)[C@@H](C)C[C@H]2C)O[C@@]12CC[C@@](C)([C@H]1CC[C@](O)(CC)[C@H](C)O1)O2 the selectivity ratio was 7.7 (HMLER CD24low/CD44high; cell viability, CellTiter-Blue; 72 h; relative to: IC50 HMLER CD24high/CD44low over CD24low/CD44high).
CC[C@H](C)[C@H](NC(=O)CNC(=O)[C@H](C)NC(=O)[C@@H]1CCCN1C(=O)CNC(=O)[C@H](C)NC(=O)[C@H](CCC(=O)O)NC(=O)[C@H](C)NC(=O)[C@H](CC(=O)O)NC(=O)[C@H](C)NC(=O)[C@H](CCC(=O)O)NC(=O)[C@H](C)NC(=O)[C@H](CCC(=O)O)NC(=O)[C@@H]1CCCN1C(=O)[C@H](CCC(=O)O)NC(=O)CNC(C)=O)C(=O)NCC(=O)N[C@@H](C)C(=O)N[C@H](C(=O)N[C@@H](CC(C)C)C(=O)N[C@@H](CCCCN)C(=O)N[C@H](C(=O)N[C@@H](CC(C)C)C(=O)N[C@H](C(=O)N[C@H](C(=O)NCC(=O)N[C@@H](CC(C)C)C(=O)N1CCC[C@H]1C(=O)N[C@@H](C)C(=O)N[C@@H](CC(C)C)C(=O)N[C@H](C(=O)N[C@@H](CO)C(=O)N[C@@H](Cc1c[nH]c2ccccc12)C(=O)N[C@H](C(=O)N[C@@H](CCCCN)C(=O)N[C@@H](CCCNC(=N)N)C(=O)N[C@@H](CCCCN)C(=O)N[C@@H](CCCNC(=N)N)C(=O)N[C@@H](CCC(N)=O)C(=O)N[C@@H](CCC(N)=O)C(N)=O)[C@@H](C)CC)[C@@H](C)CC)[C@@H](C)O)[C@@H](C)O)C(C)C)C(C)C gave a selectivity ratio of ~8 fold (MCF7 FAP-positive and FAP-negative; cytotoxicity; relative to: IC50 FAP-negative over FAP-positive).
CC[C@@H](C(=O)[C@@H](C)[C@@H](O)[C@H](C)[C@@H]1O[C@@H]([C@@H](CC)C(=O)O)CC[C@@H]1C)[C@H]1O[C@]2(C=C[C@H](NCC(C)C)[C@]3(CC[C@@](C)([C@H]4CC[C@](O)(CC)[C@H](C)O4)O3)O2)[C@H](C)C[C@@H]1C gave a selectivity ratio of 11 (HMLER CD24low/CD44high; cell viability, CellTiter-Blue; 72 h; relative to: IC50 HMLER CD24high/CD44low over CD24low/CD44high).
For CNC(=O)c1cc(Oc2ccc(NC(=O)c3ccc(-c4ccccc4OC(=O)CCC(=O)OC4OC5OC6(C)CCC7C(C)CCC(C4C)C57OO6)cn3)cc2)ccn1 (stereo not drawn), the selectivity ratio was > 6.1 (HepG2 and LO2; cell viability, MTT; 72 h; relative to: IC50 LO2 over IC50 HepG2).
With C#CCN[C@@H]1C=C[C@]2(O[C@H]([C@@H](CC)C(=O)[C@@H](C)[C@@H](O)[C@H](C)[C@@H]3O[C@@H]([C@@H](CC)C(=O)O)CC[C@@H]3C)[C@@H](C)C[C@H]2C)O[C@@]12CC[C@@](C)([C@H]1CC[C@](O)(CC)[C@H](C)O1)O2 the selectivity ratio was 13.5 (HMLER; cell proliferation; relative to: IC50 CD24high/CD44low over IC50 CD24low/CD44high).
With CNC(=O)c1cc(Oc2ccc(NC(=O)c3cc(-c4ccc(OC(=O)CCC(=O)OC5OC6OC7(C)CCC8C(C)CCC(C5C)C68OO7)cc4)ccn3)cc2)ccn1 (stereo not drawn) the selectivity ratio was 2.5 (HepG2 and LO2; cell viability, MTT; 72 h; relative to: IC50 LO2 over IC50 HepG2).
C[C@@H](N)[C@H](O)CCCCCCCC(=O)CCCCCCCCCCCCCC[C@@H](O[C@@H]1O[C@H](CO)[C@H](O)[C@H](O)[C@H]1O)[C@H](N)CO has a selectivity ratio of 2.4 (HCC70; relative to: IC50 MCF-12A over IC50 HCC70).
CNC(=O)c1cc(Oc2ccc(NC(=O)c3ccc(-c4cccc(OC(=O)CCC(=O)OC5OC6OC7(C)CCC8C(C)CCC(C5C)C68OO7)c4)cn3)cc2)ccn1 (stereo not drawn) gave a selectivity ratio of 6.8 (HepG2 and LO2; cell viability, MTT; 72 h; relative to: IC50 LO2 over IC50 HepG2).
With Cc1ccc(C(C)C)cc1.[Cl][Ru]([Cl])[P](CP(c1ccccc1)c1ccccc1)(c1ccccc1)c1ccccc1 the selectivity ratio was 1.8 (L929 and HCT-116; trypan blue exclusion; relative to: IC50 L929 over IC50 HCT-116).
